{"data": "Experimental data pooled from the literature", "target": "Ephrin type-A receptor 7 (EPHA7, Homo sapiens, UniProt Q15375)", "note": "Each line is one published result; not all experiments were run side by side."}
{"SMILES": "C=CC(=O)N1Cc2nc(-c3cc(-c4cc(Cl)cnc4Cl)c(F)cc3F)n(-c3ccncn3)c2C1", "test": "cell-free assay", "setting": "1 µM", "measurement": "inhibition", "value": "0%"}
{"SMILES": "CC(C)=CC1OC(C)(C)C2C=C3C(=O)C(Cl)=CC(O)C3C3C(O)C4OC4C(=O)C132 (stereo not shown)", "test": "cell-free assay, competition with immobilised ligand", "setting": "10 µM", "measurement": "remaining binding", "value": "93%"}
{"SMILES": "CNC(=O)C1CCN(c2cc(C)c(F)cc2NC(=O)c2ccc(-c3cc(O)ccc3C)c(C)c2)CC1", "test": "binding, competition with immobilised ligand", "setting": "1 µM", "measurement": "remaining binding", "value": "100%"}
{"SMILES": "Cc1ccc(-c2c(/C=C(\\C#N)C(=O)NC(C)C)n(CCCO)c3ncnc(N)c23)cc1", "test": "cell-free assay, competition with immobilised ligand", "setting": "1 µM", "measurement": "remaining binding", "value": "82%"}
{"SMILES": "COc1c(OCCCN2CCOCC2)ccc2c1N=C(NC(=O)c1cnc(N)nc1)N1CCN=C21", "test": "kinase activity, inhibitor", "setting": "1 µM", "how to read": "relative to: untreated control", "measurement": "remaining activity", "value": "101%"}
{"SMILES": "Cc1cnc2nc1Nc1cccc(c1)COC/C=C/COCc1cc(ccc1OCCN1CCOCC1)N2", "test": "binding", "setting": "0.1 µM", "measurement": "remaining binding", "value": "85%"}
{"SMILES": "Nc1ncc(-c2cc(-c3cnn(CC(F)(F)F)c3)ncc2F)nc1C(=O)NC1CNCC(F)C1 (stereo not shown)", "test": "enzyme activity", "setting": "1 µM", "how to read": "relative to: DMSO control", "measurement": "remaining activity", "value": "79.6%"}
{"SMILES": "NC(=O)C[C@H]1CCc2sc3ncnc(O[C@H]4CC[C@H](N5CCOCC5)CC4)c3c21", "test": "enzyme activity, inhibitor", "setting": "10 µM", "measurement": "inhibition", "value": "8%"}
{"SMILES": "CCn1cc(C(=O)O)c(=O)c2c(N)c(F)c(NC3CCCCC3)cc21", "test": "kinase activity", "setting": "0.1 µM, together with: ATP at Km", "measurement": "inhibition", "value": "6.4%"}
{"SMILES": "COc1cc(Nc2nccc(-c3cnn4nc(OC)ccc34)n2)cc(C(F)(F)F)c1", "test": "binding, competition with immobilised ligand", "setting": "1 µM", "measurement": "remaining binding", "value": "99%"}
{"SMILES": "Nc1ncc2c(n1)-c1c([nH]c3ccc(C4=CCOCC4)cc13)CCC2", "test": "binding, competition with immobilised ligand", "setting": "1 µM", "measurement": "remaining binding", "value": "100%"}
{"SMILES": "CN1CCN(Cc2ccc(-c3ccc(CO[C@H]4CCC[C@@H]4NC(=O)c4cc(-c5cnn(C)c5)cnc4N)cc3)cc2)CC1", "test": "enzyme activity, inhibitor", "setting": "0.1 µM", "measurement": "inhibition", "value": "3%"}
{"SMILES": "O=C=[N][Ru-4]123([n]4c5ccc(O)cc5c5c6c(c7cc(F)c[n+]1c7c54)C(=O)NC6=O)[S+]1CC[S+]2CC[S+]3CC1 (stereo not shown)", "test": "enzyme activity", "setting": "100 nM, human enzyme, together with: 10 µM ATP", "how to read": "relative to: untreated", "measurement": "remaining activity", "value": "113%"}
{"note": "Repeated from above:"}
{"SMILES": "Nc1ncc(-c2cc(-c3cnn(CC(F)(F)F)c3)ncc2F)nc1C(=O)NC1CNCC(F)C1 (stereo not shown)", "test": "enzyme activity", "setting": "1 µM", "how to read": "relative to: DMSO control", "measurement": "remaining activity", "value": "79.6%"}
{"SMILES": "C=CC(=O)N1Cc2nc(-c3cc(-c4cc(Cl)cnc4Cl)c(F)cc3F)n(-c3ccncn3)c2C1", "test": "cell-free assay", "setting": "1 µM", "measurement": "inhibition", "value": "0%"}
